Assay results collected from several papers.
Lines come from different studies, so protocols differ. Numbers after ± are the reported error.
FGFR1: Fibroblast growth factor receptor 1 (FGFR1, Homo sapiens, UniProt P11362)
Sequence of UniProt P11362 (whole entry, unmodified, looked up): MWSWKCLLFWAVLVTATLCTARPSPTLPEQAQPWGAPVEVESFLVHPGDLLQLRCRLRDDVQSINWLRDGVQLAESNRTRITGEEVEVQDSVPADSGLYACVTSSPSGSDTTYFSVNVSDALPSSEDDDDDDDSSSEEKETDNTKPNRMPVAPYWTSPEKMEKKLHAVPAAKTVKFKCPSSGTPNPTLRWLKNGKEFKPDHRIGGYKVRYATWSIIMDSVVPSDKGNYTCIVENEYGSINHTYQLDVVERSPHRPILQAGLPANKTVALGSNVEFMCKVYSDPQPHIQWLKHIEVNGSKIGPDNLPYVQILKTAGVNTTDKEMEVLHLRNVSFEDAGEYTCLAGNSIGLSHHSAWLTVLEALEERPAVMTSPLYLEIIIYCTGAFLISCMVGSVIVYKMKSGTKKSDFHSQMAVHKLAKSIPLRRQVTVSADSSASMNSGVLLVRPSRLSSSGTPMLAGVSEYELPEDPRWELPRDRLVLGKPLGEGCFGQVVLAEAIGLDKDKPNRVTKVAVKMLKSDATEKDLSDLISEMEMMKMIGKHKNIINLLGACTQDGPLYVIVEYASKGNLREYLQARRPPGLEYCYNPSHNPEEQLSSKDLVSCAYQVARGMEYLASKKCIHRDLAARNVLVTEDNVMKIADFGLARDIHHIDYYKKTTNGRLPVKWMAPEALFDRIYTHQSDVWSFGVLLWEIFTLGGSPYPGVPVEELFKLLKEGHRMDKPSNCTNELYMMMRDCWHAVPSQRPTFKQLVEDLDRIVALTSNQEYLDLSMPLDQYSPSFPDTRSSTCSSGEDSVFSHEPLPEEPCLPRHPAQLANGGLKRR

With O=C1NC(=O)/C(=C/c2ccc(-c3ccc(F)cc3O)o2)S1 the remaining activity was 42% (FGFR1; enzyme activity; 10 µM).
COc1cc(F)ccc1-c1ncnc(Nc2cccc(C[S@](C)(=N)=O)c2)n1 gave a remaining activity of 95% (FGFR1; kinase activity; 10 µM, together with: 10 µM ATP).
C=CC(=O)N1CCC(COCC(=O)N2CCN(c3nc(-c4cnc(N)nc4C(F)F)nc(N4CCOC[C@@H]4C)n3)CC2)CC1 gave a remaining binding of 100% (FGFR1; KINOMEscan; 1 µM).
For [2H]c1cc(C)c(NC(=O)c2cnc(Nc3cc(N4CCCCC4)nc(C)n3)s2)c(Cl)c1, the inhibition was < 30% (FGFR1; 0.01 µM).
The remaining activity of C=CC(=O)N1CCC[C@@H](n2nc(-c3ccc(Oc4ccccc4)cc3)c3c(N)ncnc32)C1 is reported as 106% (FGFR1; 1 µM).
O=C(NC1CCC1)c1ccc2nc(-c3cccc(NS(=O)(=O)NCCN4CCCCC4)c3)cn2c1 has a remaining activity of 100% (FGFR1; enzyme activity; 10 µM).
For CN1CCN(c2ccc(/C=C3/C(=O)Nc4ccc(-c5ccc6cc(O)ccc6c5)cc43)cc2)CC1, “binding free energy” read -46.5 kJ/mol (FGFR1; enzyme activity, Z'-LYTE kinase).
CC#CC(=O)N1CCC[C@H]1c1nc(-c2ccc(C(=O)Nc3ccccn3)cc2)c2c(N)nccn12 gave a remaining activity of 103 ± 1.5% (FGFR1; kinase activity, inhibitor, HotSpot radiometric; 100 nM, together with: ATP 10 µM).
COc1cc(-c2cncc3c2CN(C)Cc2cc(N4CCNCC4)ccc2-3)cc(OC)c1OC gave a remaining activity of 91% (Fibroblast growth factor receptor 1 (FGFR1, Homo sapiens, UniProt P11362, V561M); kinase activity; 1 µM, together with: ATP 10 µM; baseline: DMSO control).
With COc1ccc(F)cc1C(=O)NCc1ccc(-c2nn([C@@H](C)C(F)(F)F)c(N)c2C(N)=O)cc1 the remaining activity was 92.7 ± 1.2% (FGFR1; kinase activity, inhibitor, HotSpot radiometric; 100 nM, together with: ATP 10 µM).
C#Cc1cc(-c2cc(Nc3nc(N[C@@H](C)c4ccc(F)cn4)ncc3Cl)n[nH]2)ccc1C=O has an inhibition of 23.5% (FGFR1; enzyme activity, inhibitor; 0.2 µM).
C=CC(=O)N1CCC([C@@H]2CCNc3c(C(N)=O)c(-c4ccc(Oc5ccccc5)cc4)nn32)CC1 gave a remaining activity of 102 ± 1.4% (FGFR1; kinase activity, inhibitor, HotSpot radiometric; 100 nM, together with: ATP 10 µM).
c1cnc2ccc(Nc3nc(NC4CC4)c4nc[nH]c4n3)cc2c1 gave a remaining activity of 45% (FGFR1; kinase activity, inhibitor, SelectScreen kinase profiling; 1 µM; baseline: control).

For quick reference, copied from above:
c1cnc2ccc(Nc3nc(NC4CC4)c4nc[nH]c4n3)cc2c1 gave a remaining activity of 45% (FGFR1; kinase activity, inhibitor, SelectScreen kinase profiling; 1 µM; baseline: control).
